# Measured values gathered from unrelated publications.
# Protocols differ between the studies behind these lines. ± gives the spread as reported.
SMILES,test,test system,conditions,Cmax
O=C(O)/C=C\c1ccc2occc2c1O[C@@H]1O[C@H](CO)[C@@H](O)[C@H](O)[C@H]1O,,"rat, plasma","oral, 500 mg/kg Eu + 217 mg/kg Pc extract, dosed as combined Eu and Pc extracts",136 ± 64.9 ng/mL
CCCCCCCCCCCCCCCC(=O)N[C@@H](CCC(=O)NCCOCCOCCC(=O)NCCOCCOCCC(=O)NCCCC[C@H](NC(=O)[C@H](CC(=O)O)NC(=O)[C@H](CC(C)C)NC(=O)[C@H](Cc1ccc(O)cc1)NC(=O)[C@H](CCCCN)NC(=O)[C@H](CO)NC(=O)[C@H](Cc1ccc(O)cc1)NC(=O)[C@H](CC(=O)O)NC(=O)[C@H](CO)NC(=O)[C@@H](NC(=O)[C@H](Cc1ccccc1)NC(=O)[C@@H](NC(=O)CNC(=O)[C@H](CCC(N)=O)NC(=O)[C@@H](CO)NC(=O)[C@@H](N)Cc1c[nH]cn1)[C@@H](C)O)[C@@H](C)O)C(=O)N[C@@H](CCCNC(=N)N)C(=O)N[C@@H](CCCNC(=N)N)C(=O)N[C@@H](C)C(=O)N[C@@H](CCC(N)=O)C(=O)N[C@@H](CC(=O)O)C(=O)N[C@@H](Cc1ccccc1)C(=O)N[C@H](C(=O)N[C@@H](CCC(N)=O)C(=O)N[C@@H](Cc1c[nH]c2ccccc12)C(=O)N[C@@H](CC(C)C)C(=O)N[C@@H](CC(C)C)C(=O)N[C@@H](CC(N)=O)C(=O)N[C@H](C(=O)NCC(=O)NCC(=O)N1CCC[C@H]1C(=O)N[C@@H](CO)C(=O)N[C@@H](CO)C(=O)NCC(=O)N[C@@H](C)C(=O)N1CCC[C@H]1C(=O)N1CCC[C@H]1C(=O)N1CCC[C@H]1C(=O)N[C@@H](CO)C(N)=O)[C@@H](C)O)C(C)C)C(=O)O,,"rhesus monkey, female, plasma","subcutaneous, 60 µg/kg, day 28, toxicokinetics, mean",180 ng/mL
O=C(c1cc(Cc2n[nH]c(=O)c3ccccc23)ccc1F)N1CC(CNC2CC2)C1,,male Wistar Han rat,"oral, 30 mg/kg, day 28",2750 ng/mL
Cc1cc(Nc2nc(C[C@@]3(C(=O)O)CCN(Cc4cccc(Cl)c4F)[C@H](C)C3)cc(C)c2F)n[nH]1,,"mouse, IMR-32 xenograft, plasma","oral, 5 mg/kg once daily",7560 ng/mL
COc1cccc2c1C(=O)c1c(O)c3c(c(O)c1C2=O)CC(O)(C(=O)CO)CC3OC1CC(NC(=O)OC2C=CCCC(C)(C(=O)NCC(=O)O)CC2)C(O)C(C)O1 (stereo not drawn),,"male Sprague Dawley rat, plasma","intravenous, 21.5 mg/kg/day doxorubicin equivalents, average over days",2140 ng/mL
C/C(=N\OCCCN1CCCCC1)c1ccc(C(F)(F)F)cc1,,"mouse, plasma","oral, 50 mg/kg once daily, day 1",706 ± 145 ng/mL
CC[C@H](C)[C@H](NC(=O)[C@H](Cc1ccc(O)cc1)NC(=O)[C@@H](NC(=O)[C@H](CCCNC(=N)N)NC(=O)[C@@H](N)CC(=O)O)C(C)C)C(=O)N[C@@H](Cc1c[nH]cn1)C(=O)N1CCC[C@H]1C(=O)O,LC-MS/MS,"Beagle dog both sexes, plasma","subcutaneous, 10 mg/kg/day, day 0, median noncompartmental",1100 ng/mL
CCN1CC2(COC)C(O)CC(OC)C34C5CC6(O)C(OC)C(O)C(O)(C5C6OC(=O)c5ccccc5)C(C(OC)C23)C14 (stereo not drawn),,"Sprague-Dawley rat, plasma","oral, dose not given, with NADES in PCW extract",94.3 ± 14.5 ng/mL
CCOc1ccccc1-n1c(CN2CCNCC2)nc2ccccc2c1=O,,"C57BL/6 mouse, male, plasma","intraperitoneal, 3 mg/kg",1050 nM

# Some of these lines once more:
SMILES,test,test system,conditions,Cmax
O=C(O)/C=C\c1ccc2occc2c1O[C@@H]1O[C@H](CO)[C@@H](O)[C@H](O)[C@H]1O,,"rat, plasma","oral, 500 mg/kg Eu + 217 mg/kg Pc extract, dosed as combined Eu and Pc extracts",136 ± 64.9 ng/mL
